# Results pooled from the literature.
# Compare with care: the assays were run in different laboratories.
SMILES,organism,assay,test system,setting,endpoint,value
CCC1(CC)C2CC3CC(C2)CC1(N(C)C)C3,Influenza A virus,viral replication,A/PR/8/34 cl3,pH 5.7,EC50,> 100 µM
Cc1cc(/C=C/c2ccc(C(=O)O)cc2)ccc1OCCc1scnc1C,Mycobacterium tuberculosis,,"CDC1551 rel knock-in, nutrient-starved","concentration not given, 7 days",log reduction viability,0.05 log10
Cc1cc(=O)oc2cc(OCCCCn3cc(COc4ccc(N5C(N)=NC(N)=NC56CCCCC6)cc4)nn3)ccc12,Mycobacterium tuberculosis,bacterial growth,TA-C-resistant fbiC or fgd1 mutant,,MIC50,1.6 µM
CC(C)(C)C1CCc2c(sc3nc(SCCCN4CCCCC4)nc(N)c23)C1 (racemic),Mycobacterium tuberculosis,,K204,"100 µM, compound toxic alone, added: kanamycin",kanamycin MIC,toxic
CN[C@@H]1[C@H](O)[C@H](NC)[C@H]2O[C@]3(O)[C@H](O[C@@H]2[C@H]1O)O[C@H](C)C[C@H]3NC(=O)Cc1cscn1,Mycobacterium tuberculosis,microbial growth,ATCC35837,,MIC,1.6 µg/mL
Nc1nc(SCCCN2CCCCC2)nc2sc3c(c12)CCC(c1ccccc1)C3 (stereo not drawn),Mycobacterium tuberculosis,,K204,"100 µM, compound toxic alone, added: kanamycin",kanamycin MIC,toxic
CN[C@@H]1[C@H](O)[C@H](NC)[C@H]2O[C@]3(O)[C@H](O[C@@H]2[C@H]1O)O[C@H](C)C[C@H]3NC(=O)Cc1ccccn1,Mycobacterium tuberculosis,microbial growth,ATCC35837,,MIC,3.1 µg/mL
NC1=NC2(CCCCC2)N(c2ccc(OCc3cn(CCCCOc4ccc5ccc(=O)oc5c4)nn3)cc2)C(N)=N1,Mycobacterium tuberculosis,bacterial growth,compound-resistant fbiC or fgd1 mutant,,MIC50,1.6 µM
Cc1[nH]c(=O)c(CNC(=O)c2ccc(C(F)(F)F)nc2)c2c1CCCC2,Mycobacterium tuberculosis,,"MDR, INH and RIF resistant",,MIC,0.9 to 3 µg/mL
C1CC2C3C4C5CCC4C24CNCC54C13,Influenza A virus,viral replication,A/X-31 (H3N2),,EC50,> 100 µM
CN[C@@H]1[C@H](O)[C@H](NC)[C@H]2O[C@]3(O)[C@H](O[C@@H]2[C@H]1O)O[C@H](C)C[C@H]3NC(=O)Cc1ccc(F)cn1,Mycobacterium tuberculosis,microbial growth,ATCC35837,,MIC,6.3 µg/mL
Nc1nc(SCCN2CCCCC2)nc2sc3c(c12)CCCCC3,Mycobacterium tuberculosis,,K204,"100 µM, compound toxic alone, added: kanamycin",kanamycin MIC,toxic

# Repeated from above:
SMILES,organism,assay,test system,setting,endpoint,value
Cc1[nH]c(=O)c(CNC(=O)c2ccc(C(F)(F)F)nc2)c2c1CCCC2,Mycobacterium tuberculosis,,"MDR, INH and RIF resistant",,MIC,0.9 to 3 µg/mL
